Measured values of several laboratories.
Each line is one published result; not all experiments were run side by side. Numbers after ± are the reported error.
Target: Mu-type opioid receptor (OPRM1, Homo sapiens, UniProt P35372)

Protein sequences, listed by entry. Tags and fused reporters are not part of them.
UniProt P35372, whole entry: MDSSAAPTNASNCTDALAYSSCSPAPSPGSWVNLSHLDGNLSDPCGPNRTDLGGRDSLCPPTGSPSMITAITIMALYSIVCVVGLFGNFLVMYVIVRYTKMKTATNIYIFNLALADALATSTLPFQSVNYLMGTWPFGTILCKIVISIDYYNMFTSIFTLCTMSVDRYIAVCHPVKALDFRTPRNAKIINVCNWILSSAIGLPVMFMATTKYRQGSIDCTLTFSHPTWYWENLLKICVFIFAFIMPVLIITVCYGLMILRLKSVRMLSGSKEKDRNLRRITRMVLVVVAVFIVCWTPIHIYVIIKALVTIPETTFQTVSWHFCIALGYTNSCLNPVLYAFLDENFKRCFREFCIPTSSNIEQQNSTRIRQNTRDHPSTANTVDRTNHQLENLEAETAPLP

SMILES	assay	test system	setting	endpoint	value
Oc1cccc(N2CCN(CCCc3ccccc3)CC2)c1	cAMP, antagonist	–	human receptor, with: fentanyl EC90	IC50	190 ± 20.9 nM
N=C(N)NCC(=O)NCC1(Nc2cccc3ccccc23)CCN(Cc2ccccc2)CC1	binding	HEK293 membranes	with: [3H]DAMGO	Ki	688 ± 60 nM
C=C[C@H]1[C@H]2CCC[C@]1(c1cccc(O)c1)CCN2CCc1cccs1	forskolin-induced cAMP, antagonist	–	with: fentanyl at EC90	IC50	> 10000 nM
Oc1cccc(N2[C@@H]3CC[C@H]2CNC3)c1	cAMP, antagonist	–	human receptor, with: fentanyl EC90	IC50	> 10000 nM
O=C1Cc2ccccc2N1C1CCN([C@@H]2CC[C@@H]3CCCc4cccc2c43)CC1	radioligand displacement	–	with: [3H]DAMGO	Ki	30.3 ± 6.55 nM
C=C(I)[C@H]1CC[C@]2(C)C[C@H]1c1c(O)cc(CCCCC)cc1O2	cAMP level, antagonist	HEK293 expressing human µ-opioid receptor	with: fentanyl 500 pM (EC95)	IC50	499 nM
CCC1C(=O)N(C2CCN(CCCCc3ccc(-c4ccccc4)cc3)CC2)c2ccccc21 (centres unmarked)	agonist	cell membranes	–	EC50	> 10000 nM
CN(C)[C@]1(c2ccccc2)CC[C@]2(CC1)OCCc1c3cc(F)ccc3[nH]c12	cAMP, agonist	–	human receptor	EC50	0.32 ± 0.07 nM
CCCCCc1cc(O)c([C@@H]2C[C@@H](C)CC[C@H]2C(C)C)c(O)c1	cAMP level, antagonist	HEK293 expressing human µ-opioid receptor	with: fentanyl 500 pM (EC95)	IC50	1400 nM
CCC1C(=O)N(C2CCN(C/C=C/c3ccccc3)CC2)c2ccccc21 (centres unmarked)	radioligand displacement	–	with: [3H]DAMGO	Ki	33.4 ± 6.4 nM
C[C@H]1CN(CCCc2ccccc2)CCN1c1cccc(O)c1	cAMP, antagonist	–	human receptor, with: fentanyl EC90	IC50	24.9 ± 4.04 nM
C=C[C@H]1[C@H]2CCC[C@]1(c1cccc(O)c1)CCN2C	forskolin-induced cAMP, antagonist	–	with: fentanyl at EC90	IC50	> 10000 nM
N=C(N)NCC(=O)NCC1(Nc2ccccc2)CCN(Cc2ccccc2)CC1	binding	HEK293 membranes	with: [3H]DAMGO	Ki	2020 ± 170 nM
CN(C)[C@]1(c2ccccc2)CC[C@]2(CC1)OCCc1c3cc(F)ccc3[nH]c12	binding	CHO cell membranes	–	Kd	3.77 nM
C=C(C)[C@@H]1CCC(C)=C[C@H]1c1c(O)cc(CCCC)cc1O	cAMP level, antagonist	HEK293 expressing human µ-opioid receptor	with: fentanyl 500 pM (EC95)	IC50	173 nM
CCC1C(=O)N(C2CCN(Cc3cccc4[nH]ccc34)CC2)c2ccccc21 (centres unmarked)	radioligand displacement	–	with: [3H]DAMGO	Ki	10.6 ± 2.55 nM
C=C(C)[C@H]1CCC(C)=C[C@@H]1c1c(O)cc(CC)cc1O	cAMP level, antagonist	HEK293 expressing human µ-opioid receptor	with: fentanyl 500 pM (EC95)	IC50	6500 nM
CCC1C(=O)N(C2CCN(CCCc3ccccc3)CC2)c2ccccc21 (centres unmarked)	agonist	cell membranes	–	EC50	673 ± 334 nM
C=C(C)[C@@H]1CCC(C)=C[C@H]1c1c(O)cc(CC(C)C)cc1O	cAMP level, antagonist	HEK293 expressing human µ-opioid receptor	with: fentanyl 500 pM (EC95)	IC50	242 nM
CCC1C(=O)N(C2CCN(C(C)CC(c3ccccc3)c3ccccc3)CC2)c2ccccc21 (centres unmarked)	agonist	cell membranes	–	EC50	> 10000 nM
C=C(C)[C@@H]1CCC(C)=C[C@H]1c1c(OC)cc(CCCCC)cc1OC	cAMP level, antagonist	HEK293 expressing human µ-opioid receptor	with: fentanyl 500 pM (EC95)	IC50	90 nM
CCC1C(=O)N(C2CCN(C3CCc4ccccc4C3)CC2)c2ccccc21 (centres unmarked)	agonist	cell membranes	–	EC50	22.3 ± 0.1 nM
C=C[C@H]1[C@H]2CCC[C@]1(c1cccc(O)c1)CCN2CC1CC1	forskolin-induced cAMP, antagonist	–	with: fentanyl at EC90	IC50	973 ± 506 nM

Some of these lines once more:
SMILES	assay	test system	setting	endpoint	value
CCC1C(=O)N(C2CCN(C(C)CC(c3ccccc3)c3ccccc3)CC2)c2ccccc21 (centres unmarked)	agonist	cell membranes	–	EC50	> 10000 nM
C=C(C)[C@@H]1CCC(C)=C[C@H]1c1c(OC)cc(CCCCC)cc1OC	cAMP level, antagonist	HEK293 expressing human µ-opioid receptor	with: fentanyl 500 pM (EC95)	IC50	90 nM
